Measurements collected from several papers.
Lines come from different studies, so protocols differ. “And” joins repeats or separate records; there may be more than shown. ± gives the spread as reported.
Uncharacterized protein: Uncharacterized protein (Trypanosoma brucei brucei, UniProt Q386Q8)
Gria1: Glutamate receptor 1 (Gria1, Rattus norvegicus, UniProt P19490)
CASP6: Caspase-6 (CASP6, Homo sapiens, UniProt P55212)
TDP1: Tyrosyl-DNA phosphodiesterase 1 (TDP1, Homo sapiens, UniProt Q9NUW8)
AH receptor-interacting protein: AH receptor-interacting protein (Homo sapiens, UniProt O00170)
glpG: Rhomboid protease GlpG (glpG, Escherichia coli, UniProt P09391)
TARDBP aggregated: TAR DNA-binding protein 43, aggregated (TARDBP, Homo sapiens, UniProt Q13148)
CHRM5: Muscarinic acetylcholine receptor M5 (CHRM5, Homo sapiens, UniProt P08912)
T1: dsDNA, duplex; chain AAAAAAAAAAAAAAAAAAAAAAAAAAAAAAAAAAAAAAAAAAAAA; chain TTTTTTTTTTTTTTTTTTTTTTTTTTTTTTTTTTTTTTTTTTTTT

SMILES	target	test	test system	setting	scale	quantity	value
NC1=NCCc2ccccc21	Nicotinamide N-methyltransferase, SAH-bound (NNMT, Homo sapiens, UniProt P40261)	differential scanning fluorimetry	–	1 mM, added: 100 µM SAH	–	ΔTm	7.7 °C
Cc1ccc2c(c1Br)C(O)(CC(=O)c1ccc(C3CCCCC3)cc1)C(=O)N2 (stereo not shown)	Uncharacterized protein	inhibitor, coupled colorimetric	Trypanosoma brucei	–	–	Hill slope	-1.81
O=C(O)Cc1cc2c(cc1C(=O)c1cccc(Br)c1)OCO2	Gria1	glutamate-evoked current, whole-cell patch clamp	HEK-293T	concentration not given	baseline: glutamate alone	current amplitude ratio	5.13 ± 0.2
CC(=O)N[C@H](C(=O)N[C@@H](CCC(=O)O)C(=O)N[C@@H](CCCCN(C)C)C(=O)N[C@@H](CC(=O)O)C(=O)COC(=O)c1c(C)cccc1C)C(C)C	CASP6	enzyme activity, inhibitor	–	–	–	kinact/KI	66900 M⁻¹ s⁻¹
O=C(O)c1ccc(Nc2c(-c3ccc(CON=CC4CCCCN4C(=O)OCc4ccccc4)cc3)nc3cc(-c4ccccc4)ccn23)cc1 (mixture of isomers)	TDP1	enzyme activity, inhibitor	–	100 µM, unpurified compound	–	inhibition	17.9%
O=[N+]([O-])c1cc(Br)cc([N+](=O)[O-])c1NS(=O)(=O)c1ccc(Br)cc1	HAB1 (Arabidopsis thaliana, UniProt Q9CAJ0)	inhibitor	–	20 µM, no PYL receptor	higher = more activity	phosphatase activity	0.81 a.u. and 0.887 a.u. and 1 a.u.
CC(C)c1ccc(/C=C/C(=O)c2ccc(Br)s2)cc1	MAOB (Homo sapiens, UniProt P27338)	enzyme activity, inhibitor	–	1 µM	–	activity vs control	2.31%
Cn1c2ccccc2n2c(C=NOCc3ccc(-c4nc5cc(-c6ccccc6)ccn5c4Nc4ccc(C(=O)O)cc4)cc3)c(-c3ccccc3)nc12	TDP1	enzyme activity, inhibitor	–	100 µM	–	inhibition	77%
CC(=O)N[C@@H](Cc1ccc(C)cc1)C(=O)N[C@@H](CCCC(=O)O)C(=O)N[C@H](C(=O)N[C@@H](CC(=O)O)C(=O)COC(=O)c1c(C)cccc1C)C(C)(C)C	CASP6	enzyme activity, inhibitor	–	–	–	kinact/KI	5300 M⁻¹ s⁻¹
CCCCCCCCCCCCC/C=C/C=O	AH receptor-interacting protein	competitive isoTOP-ABPP	Ramos soluble proteome	100 µM, added: iodoacetamide probe	baseline: DMSO over compound-treated, higher = stronger cysteine blockade	isoTOP-ABPP competition ratio	1
CCCc1n(Cc2ccc(Br)cc2)c2c([n+]1Cc1ccc(Br)cc1)CCCC2	T1, dsDNA, duplex	gel retardation	–	60-1500 µM, 2 h, K+ 100 mM	–	binding	binds
COC(=O)CC(NS(=O)(=O)c1ccc(C)cc1)c1ccccc1 (stereo not shown)	glpG	enzyme activity, inhibitor, gel-based chimeric protein substrate	–	–	–	IC50	inactive
CCCCCCCO[C@H]1O[C@H](CO)[C@@H](O)[C@H](O)[C@@H]1O	Type 1 fimbrin D-mannose specific adhesin, lectin domain (fimH, Escherichia coli K-12, UniProt P08191)	isothermal titration calorimetry	–	concentration not given, 37 °C	–	binding stoichiometry	0.96 ± 0.01
O=C(O)c1ccc(Nc2c(-c3ccc(CON=Cc4ccc(=O)n(Cc5ccc(Cl)c(Cl)c5)c4)cc3)nc3cc(-c4ccccc4)ccn23)cc1	TDP1	enzyme activity, inhibitor	–	100 µM, unpurified compound	–	inhibition	74.5%
O=C1c2sc(-c3ccc(N4CCC(CO)CC4)nc3F)nc2CCN1c1cccnc1	TARDBP aggregated	radioligand binding	human, FTLD-TDP type B extract	added: radioligand 142.86 nM	–	specific binding	13.2 nM and 10.6 nM
CC(=O)N[C@H](C(=O)N[C@@H](CCCCN)C(=O)N[C@@H](CCC(N)=O)C(=O)N[C@@H](CC(=O)O)C(=O)COC(=O)c1c(C)cccc1C)C(C)C	CASP6	enzyme activity, inhibitor	–	–	–	kinact/KI	2000 M⁻¹ s⁻¹
N=C(N)NCCS(=O)(=O)O	SLC6A6 (Homo sapiens, UniProt P31641, Y138A)	binding, microscale thermophoresis	–	244 nM, room temperature, added: 50 nM labelled protein	higher = more binding	normalised MST signal	-0.0271
CN1CCC[C@@H]1C(=O)N[C@@H](Cc1ccc(-c2ccccc2)cc1)B(O)O	Proteasome component C5/PSMB5 (Homo sapiens, UniProt P20618+P28074)	progress curve	–	–	–	residence time	18 min
Cc1cccc2c1N(C(=O)n1ccnn1)CC2	KAI2 (Arabidopsis thaliana, UniProt Q9SZU7, F194A)	ITC	–	F194A mutant	baseline: wild type	relative affinity	6.27%
CC(=O)N[C@@H](CC(=O)O)C(=O)N[C@@H](CCC(=O)O)C(=O)N[C@H](C(=O)N[C@@H](CC(=O)O)C(=O)COC(=O)c1c(C)cccc1C)[C@@H](C)OCc1ccccc1	CASP6	enzyme activity, inhibitor	–	–	–	kinact/KI	206000 M⁻¹ s⁻¹
CCCCCCOc1ccc(C(=O)OCCN2CC=CCC2)cc1	CHRM5	–	membranes	100 µM, 15 h, no carbachol	baseline: control	basal binding	1.1 ± 0.03 fold
Cc1n[nH]c(C)c1C(=O)CC1(O)C(=O)Nc2cc(Cl)cc(Cl)c21 (stereo not shown)	Uncharacterized protein	inhibitor, coupled colorimetric	Trypanosoma brucei	–	–	Hill slope	-15.8

SMILES	target	test	test system	setting	scale	quantity	value
CC(=O)[C@]12NC(C)(C)C[C@@]1(C)C(=O)C1=C2c2c(c3c4n2C(C)(C)CC2=C4[C@@]4(CC(C)(C)N[C@@](C)(C4)C2=O)CC3(C)C)C(=O)C(C)(C)N1 (racemic)	OPRK1 (Homo sapiens, UniProt P41145)	cAMP level, agonist, LANCE Ultra cAMP	CHO	10 µM	–	activation	4.54%
CC1CN(S(=O)(=O)c2ccccc2)C1=O (stereo not shown)	glpG	enzyme activity, inhibitor, gel-based chimeric protein substrate	–	–	–	IC50	inactive
CC(C)(C)n1ncc2c(=O)n(Cc3cccc(F)c3)c(NCc3ccc(F)cn3)nc21	PDE4D (Homo sapiens, UniProt Q08499)	enzyme activity, inhibitor	–	–	baseline: IC50 PDE4D2 over PDE1C	selectivity ratio	72 fold
COC(=O)Cc1cc2c(cc1C(=O)c1ccccc1I)OCO2	Gria1	glutamate-evoked current, whole-cell patch clamp	HEK-293T	concentration not given, pH 7.4, holding potential -60 mV, added: 10 mM glutamate	–	current amplitude	612 ± 59 pA
CCCCCCOc1ccc(C(=O)OCC[N+]2(C)CC=CCC2)cc1 (stereo not shown)	CHRM5	–	membranes	10 µM, 15 h, no carbachol	baseline: control	basal binding	1.14 ± 0.04 fold
CC(C)[C@@H]1NC(=O)[C@H](Cc2ccccc2)NC(=O)CSC[C@@H](C(N)=O)NC(=O)[C@H](CCC(=O)O)NC(=O)[C@H](CO)NC(=O)[C@H](Cc2c[nH]c3cccc(Cl)c23)NC(=O)[C@H](C2CCCCC2)NC(=O)[C@H](C(C)C)NC(=O)[C@H](Cc2ccc(O)cc2)NC(=O)[C@H](CC(=O)O)NC(=O)[C@H](Cc2c[nH]c3ccccc23)NC(=O)[C@H](Cc2ccc(N)nc2)NC(=O)[C@H](Cc2c[nH]c3ccc(Cl)cc23)NC(=O)[C@H](CCC(=O)O)NC1=O	Interleukin-1 receptor-like 2 (IL1RL2, Homo sapiens, UniProt Q9HB29)	reporter gene (SEAP), inhibitor, HEK-Blue IL-36R reporter	HEK-Blue IL-36R cells	0.046 µM, 6 h, added: IL-36γ 3 ng/mL	–	remaining activity	104%
COc1ccc2c(c1OC)C(=O)N(c1ccc(Cl)c(Cl)c1)C2	Uncharacterized protein	inhibitor, coupled colorimetric	Trypanosoma brucei	–	–	Hill slope	-1.1
CCCCCC(O)/C=C/C=O (stereo not shown)	AH receptor-interacting protein	competitive isoTOP-ABPP	Ramos soluble proteome	100 µM, added: iodoacetamide probe	baseline: DMSO over compound-treated, higher = stronger cysteine blockade	isoTOP-ABPP competition ratio	1.5
N#CCOc1ccc(Br)cc1C=NOCc1ccc2nc(-c3ccccc3)c(Nc3ccc(C(=O)O)cc3)n2c1	TDP1	enzyme activity, inhibitor	–	100 µM, unpurified compound	–	inhibition	34.3%
Fc1ccc(Nc2nc(NC3CCCCC3)c3ccccc3n2)cc1Cl	ADRB2 (Homo sapiens, UniProt P07550)	β-arrestin2 recruitment, PathHunter and GloSensor	–	–	baseline: GloSensor IC50 over PathHunter IC50	bias factor	8 fold
O=C(O)c1ccc(Nc2c(-c3ccccc3)nc3ccc(CON=Cc4cc5ccccc5c5ccccc45)cn23)cc1 (mixture of isomers)	TDP1	enzyme activity, inhibitor	–	100 µM, unpurified compound	–	inhibition	38.4%
O=C1c2sc(-c3ccc(N4CCC(F)C4)nc3F)nc2CCN1c1cccnc1 (stereo not shown)	TARDBP aggregated	radioligand binding	control brain sarkosyl-insoluble extract	9.68 nM	–	specific binding	0.025 nM
N#Cc1ccc(-c2ccc(C=NOCc3ccc(-c4nc5cc(-c6ccccc6)ccn5c4Nc4ccc(C(=O)O)cc4)cc3)cc2)nc1	TDP1	enzyme activity, inhibitor	–	100 µM	–	inhibition	102%
O=C(Cc1ccc(OCc2ccccc2)cc1)NC1(C(=O)O)CCN(C(=O)c2ccc(-c3cccc(Cl)c3)cc2)CC1	Tribbles homolog 2 (TRIB2, Homo sapiens, UniProt Q92519)	enzyme activity, inhibitor	–	10 µM	–	activity vs control	95%
O=C(O)c1ccc(Nc2c(-c3ccccc3)nc3ccc(CON=Cc4ccc(N5CCC(CO)CC5)cc4)cn23)cc1	TDP1	enzyme activity, inhibitor	–	100 µM, unpurified compound	–	inhibition	10.1%
CC[C@H](C)[C@@H]1NC(=O)[C@H](Cc2c[nH]c3ccccc23)NC(=O)[C@H](C)NC(=O)[C@H](Cc2ccc(O)cc2)NC(=O)CNC(=O)[C@H](Cc2ccccc2)N(C)C(=O)[C@H](C)N(C)C(=O)[C@H](Cc2ccc(O)cc2)NC(=O)[C@H](C(C)C)NC(=O)[C@H](CC(C)C)NC(=O)[C@H](Cc2ccccc2)NC(=O)CSC[C@@H](C(=O)NCC(N)=O)NC1=O	Bromodomain-containing protein 4, BD1 (BRD4, Homo sapiens, UniProt O60885)	thermal stability, DSF	–	100 µM	–	ΔTm	1.01 °C
O=C(O)Cc1cc2c(cc1C(=O)c1ccccc1Cl)OCO2	Gria1	glutamate-evoked current, whole-cell patch clamp	HEK-293T	concentration not given, glutamate alone after washout, added: glutamate	–	current amplitude after recovery	891 ± 27 pA
CC[C@@H](C)[C@H](NC(=O)[C@H](Cc1ccc(O)cc1)NC(=O)[C@@H]1C[C@@H](O)CN1C(=O)[C@H](C)NC(=O)[C@H](CC(C)C)NC(=O)[C@H](C)NC(=O)[C@H](CCC(=O)O)NC(=O)[C@H](CC(=O)O)NC(=O)c1ccc2c(c1)C1(OC2=O)c2ccc(O)cc2Oc2cc(O)ccc21)C(=O)N1CCC[C@H]1C(=O)N[C@@H](CC(=O)O)C(=O)O	elongin C (Spodoptera frugiperda, UniProt A0A2H1WSX9)	surface plasmon resonance	–	binary complex	–	kon	58000 M⁻¹ s⁻¹
CCCCCCCCCCCCCCCC(=O)OCC(CSC[C@H](N)C(=O)N[C@@H](CO)C(=O)N[C@@H](CCCCN)C(=O)N[C@@H](CCCCN)C(=O)N[C@@H](CCCCN)C(=O)N[C@@H](CCCCN)C(=O)NCCCCCC(=O)N[C@@H](CCCCN)C(=O)N[C@@H](CC(C)C)C(=O)N[C@H](C(=O)N[C@@H](Cc1ccccc1)C(=O)N[C@@H](Cc1ccccc1)C(=O)N[C@@H](Cc1ccc2ccccc2c1)C(=O)O)C(C)C)OC(=O)CCCCCCCCCCCCCCC (stereo partly shown)	Amyloid-beta precursor protein, fibrillar amyloid-beta (APP, Homo sapiens, UniProt P05067)	TEM	–	2.0 eq, 3 h, fibril 4, added: APP 20 µM	–	fibril diameter	99.7 nm
O=C(O)c1ccc(Nc2c(-c3ccc(CON=Cc4csc(-c5cccc(Cl)c5)n4)cc3)nc3cc(-c4ccccc4)ccn23)cc1	TDP1	enzyme activity, inhibitor	–	100 µM, unpurified compound	–	inhibition	42.8%
N#CN1CC[C@H](C(=O)Nc2nc3c(s2)CN(C(=O)Cn2cc(CNC(=O)CCCC[C@@H]4SC[C@@H]5NC(=O)N[C@@H]54)nn2)CC3)C1	Tubulin beta-4B chain (Homo sapiens, UniProt P68371)	probe binding, affinity probe, neutravidin pull-down LC-MS/MS	HEK293T, cell lysate	5 µM, 1 h, mean of three replicates, unit not given	higher = more pulled down	iBAQ abundance	4.44e+08

A few entries again:
SMILES	target	test	test system	setting	scale	quantity	value
CC(C)(C)n1ncc2c(=O)n(Cc3cccc(F)c3)c(NCc3ccc(F)cn3)nc21	PDE4D (Homo sapiens, UniProt Q08499)	enzyme activity, inhibitor	–	–	baseline: IC50 PDE4D2 over PDE1C	selectivity ratio	72 fold
O=C(O)Cc1cc2c(cc1C(=O)c1cccc(Br)c1)OCO2	Gria1	glutamate-evoked current, whole-cell patch clamp	HEK-293T	concentration not given	baseline: glutamate alone	current amplitude ratio	5.13 ± 0.2
CCCCCCCCCCCCCCCC(=O)OCC(CSC[C@H](N)C(=O)N[C@@H](CO)C(=O)N[C@@H](CCCCN)C(=O)N[C@@H](CCCCN)C(=O)N[C@@H](CCCCN)C(=O)N[C@@H](CCCCN)C(=O)NCCCCCC(=O)N[C@@H](CCCCN)C(=O)N[C@@H](CC(C)C)C(=O)N[C@H](C(=O)N[C@@H](Cc1ccccc1)C(=O)N[C@@H](Cc1ccccc1)C(=O)N[C@@H](Cc1ccc2ccccc2c1)C(=O)O)C(C)C)OC(=O)CCCCCCCCCCCCCCC (stereo partly shown)	Amyloid-beta precursor protein, fibrillar amyloid-beta (APP, Homo sapiens, UniProt P05067)	TEM	–	2.0 eq, 3 h, fibril 4, added: APP 20 µM	–	fibril diameter	99.7 nm
CC1CN(S(=O)(=O)c2ccccc2)C1=O (stereo not shown)	glpG	enzyme activity, inhibitor, gel-based chimeric protein substrate	–	–	–	IC50	inactive
CCCCCCOc1ccc(C(=O)OCC[N+]2(C)CC=CCC2)cc1 (stereo not shown)	CHRM5	–	membranes	10 µM, 15 h, no carbachol	baseline: control	basal binding	1.14 ± 0.04 fold
O=C(O)c1ccc(Nc2c(-c3ccc(CON=Cc4ccc(=O)n(Cc5ccc(Cl)c(Cl)c5)c4)cc3)nc3cc(-c4ccccc4)ccn23)cc1	TDP1	enzyme activity, inhibitor	–	100 µM, unpurified compound	–	inhibition	74.5%
